Experimental data pooled from the literature.
Each line is one published result; not all experiments were run side by side. Numbers after ± are the reported error. Values after ≈ are worked out from the molar mass of the structure shown.

Amino acid sequences for entries named in this document (tags omitted).
UniProt Q8WXR4, whole entry: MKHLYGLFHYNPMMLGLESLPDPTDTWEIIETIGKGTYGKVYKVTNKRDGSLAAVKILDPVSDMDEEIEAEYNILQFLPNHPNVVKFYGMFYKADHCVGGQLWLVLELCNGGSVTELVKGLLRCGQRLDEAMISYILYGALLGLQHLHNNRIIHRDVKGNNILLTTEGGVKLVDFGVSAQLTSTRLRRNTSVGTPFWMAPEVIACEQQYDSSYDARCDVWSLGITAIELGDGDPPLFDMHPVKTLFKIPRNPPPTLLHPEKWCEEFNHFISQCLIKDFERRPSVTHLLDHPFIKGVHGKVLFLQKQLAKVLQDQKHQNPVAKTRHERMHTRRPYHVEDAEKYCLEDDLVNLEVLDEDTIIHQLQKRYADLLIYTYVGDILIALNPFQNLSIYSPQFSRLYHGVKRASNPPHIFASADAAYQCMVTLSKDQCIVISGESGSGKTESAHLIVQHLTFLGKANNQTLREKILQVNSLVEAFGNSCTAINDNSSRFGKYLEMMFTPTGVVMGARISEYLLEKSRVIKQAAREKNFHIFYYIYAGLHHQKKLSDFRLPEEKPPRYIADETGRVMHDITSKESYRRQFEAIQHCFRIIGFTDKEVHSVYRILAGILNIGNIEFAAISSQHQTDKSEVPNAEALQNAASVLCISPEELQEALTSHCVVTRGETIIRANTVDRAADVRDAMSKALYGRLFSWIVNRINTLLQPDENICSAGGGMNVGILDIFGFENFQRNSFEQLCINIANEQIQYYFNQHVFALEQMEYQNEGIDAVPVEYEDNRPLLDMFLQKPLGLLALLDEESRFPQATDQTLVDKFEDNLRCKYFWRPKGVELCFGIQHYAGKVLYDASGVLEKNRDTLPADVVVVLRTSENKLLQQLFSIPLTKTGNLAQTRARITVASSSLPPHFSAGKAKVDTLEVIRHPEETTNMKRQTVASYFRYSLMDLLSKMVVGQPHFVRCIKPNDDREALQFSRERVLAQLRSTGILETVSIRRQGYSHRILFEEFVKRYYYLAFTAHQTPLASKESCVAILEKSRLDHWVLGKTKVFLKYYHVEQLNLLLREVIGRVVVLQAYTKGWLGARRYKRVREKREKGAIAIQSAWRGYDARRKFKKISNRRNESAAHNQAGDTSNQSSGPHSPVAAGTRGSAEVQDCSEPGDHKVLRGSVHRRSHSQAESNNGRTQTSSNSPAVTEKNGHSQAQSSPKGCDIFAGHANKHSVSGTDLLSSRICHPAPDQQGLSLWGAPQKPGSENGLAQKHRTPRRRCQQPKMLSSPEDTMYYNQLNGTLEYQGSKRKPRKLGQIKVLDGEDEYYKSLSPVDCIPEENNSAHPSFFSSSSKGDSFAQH
UniProt P22455, whole entry, looked up: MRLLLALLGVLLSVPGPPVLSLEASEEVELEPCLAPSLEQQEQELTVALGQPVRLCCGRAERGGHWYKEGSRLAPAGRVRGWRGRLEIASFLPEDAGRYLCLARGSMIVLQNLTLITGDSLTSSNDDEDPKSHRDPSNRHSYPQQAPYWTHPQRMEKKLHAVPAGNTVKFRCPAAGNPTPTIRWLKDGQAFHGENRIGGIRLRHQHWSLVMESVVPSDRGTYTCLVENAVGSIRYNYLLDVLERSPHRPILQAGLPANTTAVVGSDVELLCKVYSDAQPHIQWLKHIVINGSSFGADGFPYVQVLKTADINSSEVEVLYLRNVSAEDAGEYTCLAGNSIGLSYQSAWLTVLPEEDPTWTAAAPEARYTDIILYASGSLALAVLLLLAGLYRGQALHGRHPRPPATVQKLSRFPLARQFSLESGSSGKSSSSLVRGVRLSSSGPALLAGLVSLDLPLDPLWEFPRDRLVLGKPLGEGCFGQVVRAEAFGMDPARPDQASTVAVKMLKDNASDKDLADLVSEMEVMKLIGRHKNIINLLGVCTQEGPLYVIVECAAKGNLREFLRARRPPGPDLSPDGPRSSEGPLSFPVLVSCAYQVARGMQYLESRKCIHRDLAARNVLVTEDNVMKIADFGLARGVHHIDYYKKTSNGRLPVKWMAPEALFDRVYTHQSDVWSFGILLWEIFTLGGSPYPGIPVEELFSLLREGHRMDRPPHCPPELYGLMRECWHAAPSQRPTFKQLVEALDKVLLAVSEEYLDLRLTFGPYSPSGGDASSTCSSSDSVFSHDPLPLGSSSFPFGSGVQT

Compound | tested on | assay | system | setting | scale | quantity | value
CCc1nc(N)nc(N)c1C#C[C@@H](C)c1cc(OC)cc(-c2ccc(C(=O)O)cc2)c1 | Mycobacterium tuberculosis | – | PAS-resistant folC I43T | – | – | MIC | 0.015 µg/mL
CS(=O)(=O)NC(=O)CCc1cn(-c2ccc(Br)cc2)nc1-c1ccc(Cl)cc1 | Mycobacterium tuberculosis | – | MmpL3 G758A mutant | – | – | MIC | 2 µM
CCN1CCN(Cc2ccc(NC(=O)c3ccc(C)c(/C=C/c4cnc5[nH]ccc5c4OC)c3)cc2C(F)(F)F)CC1 | Myosin-IIIb, with CDC37 (MYO3B, Homo sapiens, UniProt Q8WXR4) | inhibitor | – | 5 µM | relative to: no inhibitor | log2 fold change | 0.686
CC#C/C(=N\OC[C@H]1COCCN1)c1ccc2ncnc(Nc3ccc(OCc4cccc(F)c4)c(Cl)c3)c2c1 | Fibroblast growth factor receptor 4 (FGFR4, Homo sapiens, UniProt P22455) | kinase activity | – | 10 µM | – | inhibition | 1.3%
CS(=O)(=O)NC(=O)NCc1cc(-c2ccc(Br)cc2)oc1-c1ccncc1 | Mycobacterium tuberculosis | OD600 | QcrB A317T mutant | – | – | MIC | 0.12 µM
COCCOc1ccc2nc3ccc(=O)c(Cl)c-3oc2c1 | Mycobacterium tuberculosis | – | mc2 6206 clofazimine-resistant fbiC mutant | 7 days | – | MIC90 | 20 µM (≈ 6.11 µg/mL)
CC1(C)CCC(Cc2cc(O)c(-c3ccccc3)c(=O)[nH]2)CC1 | Mycobacterium tuberculosis | – | H37Rv | – | – | MIC50 | 0.05 µM (≈ 0.0156 µg/mL)
COCCOc1ccc2nc3ccc(=O)cc-3oc2c1 | Mycobacterium tuberculosis | – | mc2 6206 PA-824-resistant ddn mutant | 7 days | – | MIC90 | 46 µM (≈ 12.5 µg/mL)
COc1c(C)c(-c2ccc(Cc3ccccc3)cc2)nc2ccccc12 | Mycobacterium tuberculosis | growth | H37Rv | Wayne model, O2-limited | – | IC50 | 1600 ± 330 nM
CS(=O)(=O)NC(=O)NCc1cn(-c2ccc(Cl)cc2)nc1-c1ccncc1 | Mycobacterium tuberculosis | – | MmpL3 G253E mutant | – | – | MIC | 1 µM
CCc1nc(N)nc(N)c1C#CCc1cc(OC)cc(-c2ccc(C(=O)O)cc2)c1 | Mycobacterium tuberculosis | – | PAS-resistant thyX -16 C>T | – | – | MIC | 16 µg/mL
O=c1ccc2nc3ccc(OCCCCF)cc3oc-2c1 | Mycobacterium tuberculosis | – | mc2 6206 clofazimine-resistant fbiC mutant | 7 days | – | MIC90 | 5.7 µM (≈ 1.64 µg/mL)

For quick reference, copied from above:
Compound | tested on | assay | system | setting | scale | quantity | value
CS(=O)(=O)NC(=O)CCc1cn(-c2ccc(Br)cc2)nc1-c1ccc(Cl)cc1 | Mycobacterium tuberculosis | – | MmpL3 G758A mutant | – | – | MIC | 2 µM
